# Values quoted from earlier work as cited in several papers.
# Compare with care: the assays were run in different laboratories. Several values in a cell are separate wells, animals, samples, runs or records. Numbers after ± are the reported error.
SMILES,target or system,test,system,setting,scale,measurement,result
C#Cc1cccc(Nc2ncnc3cc(OCCOC)c(OCCOC)cc23)c1,C6 rat glioma,,,,,IC50,> 100 µM
c1ccc2c(c1)CCNC2c1c[nH]c2cnccc12 (stereo not shown),COLO 205,cytotoxicity,,,,IC50,> 100 µM
O=C(O)c1cn([C@H]2O[C@@H](CO)[C@H](O)[C@@H]2O)c2ccc(Oc3ccccc3)cc2c1=O,K562,,,,,IC50,198 µM
COc1ccc(-c2cc(-c3cc4ccccc4oc3=O)nc(Cc3ccc(F)cc3)n2)cc1,A549,,,,,IC50,16.1 µM
c1ccc2c3c([nH]c2c1)C(c1c[nH]c2ncccc12)NCC3 (stereo not shown),COLO 205,cytotoxicity,,,,IC50,50 to 80 µM and 66.8 µM
COc1ccc(Nc2nc(Nc3ccc(OCC[18F])cc3)ncc2Br)cc1,,,S180 tumour-bearing mice,"intravenous, 60 min",relative to: tumour over muscle,tumour to tissue ratio,1.64
Nc1nc2sc(CCCc3ccc(C(=O)N[C@@H](CCC(=O)O)C(=O)O)cc3)cc2c(=O)[nH]1,CHO RT16 (human FRα),cell growth,,no added folic acid,,IC50,0.013 µM
c1ccc2c(c1)CCNC2c1c[nH]c2cccnc12 (stereo not shown),MRC-5 fibroblasts,cytotoxicity,,,,IC50,> 100 µM
CNCCN(C)Cc1ccc(-c2ccc(C(F)(F)F)cc2)o1,MCF7,cell viability,,,,IC50,61.1 µM
O=c1oc2ccccc2cc1-c1cc(-c2ccc(Cl)cc2)nc(Cc2ccc(F)cc2)n1,A549,,,,,IC50,2.15 µM
Cc1ccc(Cn2cc(CNC3=C(Cl)C(=O)c4cccnc4C3=O)nn2)cc1,KB-VIN,cell growth,,,,IC50,6.81 µM
Cc1ccc(/N=C2\SC(C3C(=O)Nc4ccc(C)cc43)C(=O)N2c2ccc(C)cc2)cc1 (stereo not shown),WI-38,,,,,IC50,49.1 ± 1.9 µM
COc1ccc(-c2cc(-c3cc4ccccc4oc3=O)nc3nc(C)[nH]c(=O)c23)cc1,MCF7,,,,,IC50,2.42 ± 0.75 µM
Nc1nc2[nH]c(CCCCc3ccc(C(=O)N[C@@H](CCC(=O)O)C(=O)O)s3)cc2c(=O)[nH]1,CHO PC43-10 (human RFC),cell growth,,,,IC50,> 1 µM
O=C1NC2CCCCC2NC1c1c[nH]c2ccccc12 (stereo not shown),COLO 205,cytotoxicity,,,,IC50,> 100 µM
COc1cccc(-c2nnc(Nc3ccccc3C(F)(F)F)s2)c1,MCF7,,,,,IC50,49.6 µM
c1cnc2[nH]cc(C3NCCc4sccc43)c2c1 (stereo not shown),MRC-5 fibroblasts,cytotoxicity,,,,IC50,> 100 µM
Nc1nc2[nH]c(CCCCCCCC(=O)N[C@@H](CCC(=O)O)C(=O)O)cc2c(=O)[nH]1,CHO PC43-10 (human RFC),cell growth,,,,IC50,> 1 µM
O=C(O)c1ccc([C@H]2C[C@H]3[C@@H](N2)[C@H](c2cccc(Cl)c2F)[C@]2(C(=O)Nc4cc(Cl)ccc42)N3CC2CC2)cc1,SK-OV-3,"cell viability, CellTiter-Glo",,,,IC50,> 25 µM
O=C(C=C(O)C(F)(F)C(F)(F)F)c1ccc(NCc2ccccc2)nc1,Plasmodium falciparum formate-nitrite transporter,"binding, FCCS",isolated protein,,,Ki,0.032 ± 0.015 µM
Cc1ccc(NC(=O)c2c[nH]c3ccc(Cl)cc3c2=O)cc1,ACP-03,,,,,IC50,1.92 µM
Nc1nc2[nH]c(CCCCCCCCC(=O)N[C@@H](CCC(=O)O)C(=O)O)cc2c(=O)[nH]1,CHO PC43-10 (human RFC),cell growth,,,,IC50,> 1 µM
c1ccc2c(c1)CCNC2c1c[nH]c2ccncc12 (stereo not shown),MRC-5 fibroblasts,cytotoxicity,,,,IC50,> 100 µM
CN(C)c1ccc(S(=O)(=O)Oc2cccc(-c3nc(N)c4c(=O)oc5ccccc5c4n3)c2)cc1,CNE-2,cell proliferation,,,,IC50,0.82 µM
COc1cc2c(cc1OC)C(c1c[nH]c3ccccc13)NCC2 (stereo not shown),MRC-5 fibroblasts,cytotoxicity,,,,IC50,> 100 µM
CCCN1C(=O)/C(=C\c2cccc(OC)c2)S/C1=N/c1ccccc1,HCT-116,,,,,IC50,34.2 µM
Nc1nc2[nH]c(CCCc3ccc(C(=O)N[C@@H](CCC(=O)O)C(=O)O)cc3)cc2c(=O)[nH]1,CHO PC43-10 (human RFC),cell growth,,,,IC50,0.649 µM
c1ccc2c(C3NCCc4c3[nH]c3ccccc43)c[nH]c2c1 (stereo not shown),COLO 205,cytotoxicity,,,,IC50,24.7 µM

# A few entries again:
SMILES,target or system,test,system,setting,scale,measurement,result
O=C(C=C(O)C(F)(F)C(F)(F)F)c1ccc(NCc2ccccc2)nc1,Plasmodium falciparum formate-nitrite transporter,"binding, FCCS",isolated protein,,,Ki,0.032 ± 0.015 µM
Cc1ccc(NC(=O)c2c[nH]c3ccc(Cl)cc3c2=O)cc1,ACP-03,,,,,IC50,1.92 µM
Nc1nc2[nH]c(CCCCCCCCC(=O)N[C@@H](CCC(=O)O)C(=O)O)cc2c(=O)[nH]1,CHO PC43-10 (human RFC),cell growth,,,,IC50,> 1 µM
c1ccc2c(c1)CCNC2c1c[nH]c2ccncc12 (stereo not shown),MRC-5 fibroblasts,cytotoxicity,,,,IC50,> 100 µM
